# Assay results of several laboratories.
# Compare with care: the assays were run in different laboratories. ± gives the spread as reported.
SMILES,assay,test system,conditions,how to read,measurement,result
CC(C)C[C@H](NC(=O)[C@H](C)N)C(=O)N[C@@H](CC(C)C)C(=O)N[C@@H](C)C(=O)N[C@@H](CC(N)=O)C(=O)N[C@@H](Cc1c[nH]cn1)C(=O)N[C@@H](CCC(=O)O)C(=O)N[C@@H](CCC(=O)O)C(=O)N[C@@H](CC(C)C)C(=O)N[C@@H](Cc1ccccc1)C(=O)N[C@@H](CCC(N)=O)C(=O)N[C@H](C(=O)NCC(=O)NCC(=O)NCC(=O)N[C@@H](CO)C(=O)N[C@@H](CSC1CC(=O)N(CCNC(=O)CCCCCN2C(=CC=C3CCCC(C=CC4=[N+](CCCCS(=O)(=O)[O-])c5ccc(S(=O)(=O)O)cc5C4(C)C)=C3Oc3ccc(S(=O)(=O)O)cc3)C(C)(C)c3cc(S(=O)(=O)O)ccc32)C1=O)C(=O)O)[C@@H](C)O (stereo partly drawn),,human liver FFPE sections,,reference: HCC over cirrhosis,fluorescence intensity ratio,1.7 fold
Fc1ccc(N2CCN(Cc3nnc(-c4ccccc4)o3)CC2)cc1,,methanol,25 µM,,DPPH radical scavenging,31.3 ± 2.4%
C=C(NC(=O)C(=C)NC(=O)c1csc(C2=NC3c4csc(n4)C4NC(=O)c5csc(n5)C(C(C)(O)C(C)O)NC(=O)C5CSC(=N5)C(=CC)NC(=O)C(C(C)O)NC(=O)c5csc(n5)C3(CC2)NC(=O)C(C)NC(=O)C(=C)NC(=O)C(C(C)CC)NC2C=Cc3c(C(C)O)cc(nc3C2O)C(=O)OC4C)n1)C(N)=O (stereo not drawn),"protein synthesis, inhibitor, coupled transcription-translation",Escherichia coli S30 extract,,reference: thiostrepton A,IC50 fold change,> 10 fold
CC(C)[C@H](N)C(=O)N[C@@H](Cc1ccc(O)cc1)C(=O)N[C@@H](CCCCN)C(=O)N[C@H](C(=O)N[C@@H](CCCCN)C(=O)N[C@H](C(=O)N[C@@H](CCCCN)C(=O)N[C@H](C(=O)N[C@@H](CCCCN)C(=O)N[C@H](C(=O)N[C@@H](CCCCN)C(=O)N[C@H](C(=O)N[C@@H](CCCCN)C(=O)N[C@H](C(=O)N[C@@H](CCCCN)C(=O)N[C@H](C(=O)N[C@@H](CCCCN)C(=O)N[C@H](C(=O)O)[C@@H](C)O)C(C)C)[C@@H](C)O)C(C)C)[C@@H](C)O)C(C)C)[C@@H](C)O)C(C)C,,rVλ6Wil fibrils,"1 h, room temperature, 0.05% Tween-20",reference: 1 M NaCl over PBS,binding ratio,0.35
CCOP(=O)(CC(=O)Nc1ccc(S(=O)(=O)N(CC(N)=O)c2ccc(N(CC(N)=O)S(=O)(=O)c3ccc(OC)cc3)c3ccccc23)cc1)OCC,Y maze,APP/PS1 mice,"intragastric, 40 mg/kg, 60 days, lentivirus intracerebroventricular",reference: untreated APP/PS1,spontaneous alternation,increased
NCCCC[C@H](NC(=O)CNC(=O)CNC(=O)[C@H](CCCCN)NC(=O)CNC(=O)CNC(=O)CNC(=O)[C@H](CCCCN)NC(=O)CNC(=O)CNC(=O)[C@H](CCCCN)NC(=O)CNC(=O)CNC(=O)CNC(=O)[C@H](CCCCN)NC(=O)CNC(=O)CNC(=O)[C@H](CCCCN)NC(=O)CNC(=O)CNC(=O)CNC(=O)[C@H](CCCCN)NC(=O)CNC(=O)CNC(=O)[C@H](CCCCN)NC(=O)[C@H](CO)NC(=O)[C@H](Cc1ccc(O)cc1)NC(=O)CNC(=O)CNC(=O)CN)C(=O)NCC(=O)O,,human IAPP fibrils,"1 h, room temperature",reference: 1 M NaCl over PBS,binding ratio,0.12
CCN(CCCCOc1ccc(CCC(=O)N2CCC(Cc3ccccc3)CC2)cc1OC)Cc1ccccc1,"decrease, ELISA, measured: TNF-α","APP/PS1 transgenic mice, cerebral cortex",dose not given,,protein level,decreased
C[C@H](NC(=O)[C@H](CCC(N)=O)NC(=O)[C@H](CCCCN)NC(=O)[C@H](C)NC(=O)[C@@H]1CCCN1C(=O)[C@H](C)NC(=O)[C@H](CCCCN)NC(=O)[C@H](CCC(N)=O)NC(=O)[C@H](C)NC(=O)[C@H](CCCCN)NC(=O)[C@H](CCC(N)=O)NC(=O)[C@@H]1CCCN1C(=O)[C@H](CCC(N)=O)NC(=O)[C@H](CCCCN)NC(=O)[C@H](C)NC(=O)[C@H](CCC(N)=O)NC(=O)[C@H](CCCCN)NC(=O)[C@H](C)NC(=O)[C@@H]1CCCN1C(=O)[C@H](C)NC(=O)[C@H](CCCCN)NC(=O)[C@H](CCC(N)=O)NC(=O)[C@H](C)NC(=O)[C@H](CCCCN)NC(=O)[C@H](CO)NC(=O)[C@H](Cc1ccc(O)cc1)NC(=O)CNC(=O)CNC(=O)CN)C(=O)N[C@@H](CCCCN)C(=O)N[C@@H](CCC(N)=O)C(=O)O,binding,AA amyloid mouse liver homogenate,"1 h, room temperature",,bound fraction,11%
Cc1cc(Nc2nc(C[C@@]3(C(=O)O)CCN(Cc4cccc(Cl)c4F)[C@H](C)C3)cc(C)c2F)[nH]n1,,"mouse, IMR-32 neuroblastoma xenograft","oral, 10 mg/kg once daily",,tumour growth inhibition,102%
CCN(Cc1ccccc1)C(=O)CCc1nc(CN2CCN(C(=O)Cc3ccc(OC)c(OC)c3)CC2)no1,current clamp,"L4-L6 DRG neurons, rat CCI model","1 µM, added: 500 pA current injection",,action potential amplitude,106 ± 1.14 mV
C[C@H](NC(=O)[C@H](CCC(N)=O)NC(=O)[C@H](C)NC(=O)[C@H](CCCCN)NC(=O)[C@H](CCC(N)=O)NC(=O)[C@H](C)NC(=O)[C@H](CCCCN)NC(=O)[C@H](CCC(N)=O)NC(=O)[C@H](C)NC(=O)[C@H](CCC(N)=O)NC(=O)[C@H](CCCCN)NC(=O)[C@H](C)NC(=O)[C@H](CCC(N)=O)NC(=O)[C@H](CCCCN)NC(=O)[C@H](C)NC(=O)[C@H](CCC(N)=O)NC(=O)[C@H](C)NC(=O)[C@H](CCCCN)NC(=O)[C@H](CCC(N)=O)NC(=O)[C@H](C)NC(=O)[C@H](CCCCN)NC(=O)[C@H](CO)NC(=O)[C@H](Cc1ccc(O)cc1)NC(=O)CNC(=O)CNC(=O)CN)C(=O)N[C@@H](CCCCN)C(=O)N[C@@H](CCC(N)=O)C(=O)N[C@@H](C)C(=O)N[C@@H](CCCCN)C(=O)N[C@@H](CCC(N)=O)C(=O)O,,Aβ(1-40) fibrils,"1 h, room temperature",reference: 1 M NaCl over PBS,binding ratio,0.57
CC[C@H](C)[C@@H]1NC(=O)[C@@H](NC(=O)CNC(=O)c2ccc(F)cc2)CSSC[C@@H]2NC(=O)[C@H](C)NC(=O)CNC(=O)[C@@H]3CCCN3C(=O)[C@@H]3CSSC[C@@H](C(=O)NCC(=O)O)NC(=O)[C@H](Cc4ccc(O)cc4)NC(=O)CNC(=O)[C@H](CC(N)=O)NC(=O)CNC(=O)[C@H](CCCNC(=N)N)NC(=O)[C@H](CSSC[C@H](NC(=O)[C@H](CCCNC(=N)N)NC(=O)[C@H](Cc4ccccc4)NC(=O)[C@H](CC(C)C)NC(=O)[C@H](CC(C)C)NC(=O)[C@H]([C@@H](C)O)NC(=O)CNC(=O)[C@H](CC(C)C)NC(=O)[C@H](CC(=O)O)NC(=O)[C@H]([C@@H](C)O)NC(=O)[C@H](CCCNC(=N)N)NC(=O)[C@H](CCSC)NC(=O)[C@H](CC(N)=O)NC(=O)[C@H](CC(C)C)NC1=O)C(=O)N[C@@H](CCCNC(=N)N)C(=O)N[C@@H](CCCNC(=N)N)C(=O)N[C@@H](CC(=O)O)C(=O)N[C@@H](CO)C(=O)N[C@@H](CC(=O)O)C(=O)N3)NC(=O)[C@H]([C@@H](C)CC)NC2=O [fluorine-18 labelled],PET,"mouse, 293 xenograft (integrin αvβ6-negative)",0.5 h,,tumour uptake,1.4 ± 0.6 %ID/g
CC(C)C[C@H](NC(=O)CNC(=O)[C@H](CCC(=O)O)NC(=O)[C@H](CCCCN)NC(=O)[C@H](CC(C)C)NC(=O)[C@H](C)NC(=O)[C@H](C)NC(=O)CNC(=O)[C@H](C)NC(=O)[C@H](CCCCN)NC(=O)[C@H](CCC(=O)O)NC(=O)[C@H](CC(C)C)NC(=O)[C@H](CCCCN)NC(=O)[C@H](CCCCN)NC(=O)[C@H](CC(C)C)NC(=O)[C@H](CC(C)C)NC(=O)[C@H](CCCCN)NC(=O)[C@H](Cc1c[nH]c2ccccc12)NC(=O)[C@@H](N)CCCCN)C(=O)N[C@@H](CC(C)C)C(=O)N[C@@H](CCCCN)C(=O)N[C@@H](C)C(=O)NCC(=O)N1CCC[C@H]1C(=O)N[C@@H](C)C(=O)N[C@@H](CC(C)C)C(=O)N[C@@H](C)C(=O)N[C@@H](CC(C)C)C(=O)N[C@@H](CC(C)C)C(=O)NCC(=O)N[C@@H](C)C(=O)N[C@@H](C)C(=O)N[C@@H](C)C(=O)N[C@@H](C)C(=O)N[C@@H](CC(C)C)C(=O)N[C@@H](C)C(=O)N[C@@H](CCCCN)C(N)=O,,POPC/POPG 1:1 vesicles,,,static quenching constant,140 M⁻¹
Cc1ccc(/C=C/C(=O)O)cc1-c1cc2c(cc1C)C(C)(C)CCC2(C)C,"RNA sequencing, measured: Abca1 mRNA","rat, brain","dose not given, 24 h, single dose",reference: vehicle,log2 fold change,0.19
CC[C@H](C)[C@H](NC(=O)[C@H](Cc1ccc(O)cc1)NC(=O)[C@@H]1CCCN1C(=O)[C@H](CCCNC(=N)N)NC(=O)[C@H](CCCNC(=N)N)NC(=O)CC[C@H](N)C(=O)NCCOCCOCCO[C@@H]1O[C@H](CO)[C@@H](O[C@@H]2O[C@H](CO)[C@H](O)[C@H](O)[C@H]2O)[C@H](O)[C@H]1O)C(=O)N[C@@H](CC(C)C)C(=O)O,6 Hz seizure test,CF-1 mouse,"intracerebroventricular, 30 min, 32 mA corneal stimulation",,ED50,< 0.001 nmol
CC(=O)N[C@@H](Cc1c[nH]c2ccccc12)C(=O)NCC(=O)N[C@@H](C)C(=O)N[C@H]1CSCC(=O)Nc2ccc(cc2)N=Nc2ccc(c(S(=O)(=O)O)c2)-c2ccc(cc2S(=O)(=O)O)N=Nc2ccc(cc2)NC(=O)CSC[C@@H](C(=O)N[C@@H](C)C(=O)N[C@@H](CCC(N)=O)C(N)=O)NC(=O)[C@H](CCCNC(=N)N)NC(=O)[C@H](C)NC(=O)[C@H](C)NC(=O)[C@H](C)NC(=O)[C@H](CCC(=O)O)NC(=O)[C@H](CCCNC(=N)N)NC(=O)[C@H](C)NC(=O)[C@H](C)NC(=O)[C@H](C)NC(=O)[C@H](CCC(=O)O)NC(=O)[C@H](CCCNC(=N)N)NC(=O)[C@H](C)NC(=O)[C@H](C)NC(=O)[C@H](C)NC(=O)[C@H](CCC(=O)O)NC(=O)[C@H](CCCNC(=N)N)NC(=O)[C@H](C)NC(=O)[C@H](C)NC(=O)[C@H](C)NC(=O)[C@H](CCC(=O)O)NC1=O,"cis-to-trans reversion, UV-Vis absorbance",10 mM phosphate buffer,"pH 7.0, 20 °C, added: 365 nm irradiation",,thermal relaxation half-life,16 ± 0.5 min
CC(C)C[C@@H]1NC(=O)[C@H](C(C)C)NC(=O)[C@H](CO)NC(=O)CNC(=O)CNC(=O)[C@H](CCCNC(=N)N)NC(=O)[C@@H]2CCCN2C(=O)[C@@H](NC(=O)CC[C@H](NC(=O)c2ccc(N(C)Cc3cnc4nc(N)nc(N)c4n3)cc2)C(=O)O)C(C)(C)SSC[C@@H](C(=O)O)NC(=O)CNC(=O)[C@H]([C@@H](C)O)NC(=O)[C@H](C(C)C)NC1=O,,rat adjuvant arthritis,"iv, 0.2 mg/kg once daily, day 14",,liver weight,6.2 ± 0.172 g
CC[C@H](C)[C@H](NC(=O)[C@@H](NC(=O)[C@H](CC(=O)O)NC(C)=O)[C@@H](C)O)C(=O)N[C@@H](CCCNC(=N)N)C(=O)N[C@@H](CC(C)C)C(=O)N[C@@H](CC(C)C)C(=O)N[C@@H](Cc1ccccc1)C(=O)N[C@@H](CCC(N)=O)C(=O)N[C@@H](CC(C)C)C(=O)N[C@@H](CCSC)C(=O)N[C@@H](CCCNC(=N)N)C(=O)N1CCC[C@H]1C(=O)N1CCC[C@H]1C(=O)N[C@@H](CC(N)=O)C(=O)N[C@@H](CCSC)C(=O)N[C@H](C(=O)N1CCC[C@H]1C(=O)N[C@@H](C)C(=O)N[C@H](C(=O)N[C@@H](CC(N)=O)C(=O)N[C@@H](C)C(N)=O)C(C)C)[C@@H](C)O,measured: HA-41 tetramer,"antigen-experienced tetramer+ CD4 T cells, healthy adults, HLA-DRB1*0101",dose not given,,α4β7− CCR9− cells,50%
